Measured values gathered from unrelated publications.
Lines come from different studies, so protocols differ. Values joined by “and” are separate records of one study, mostly repeats; a detail may differ. ± marks the error that the study gave.
Matrix protein 2 S31N: Matrix protein 2 (Influenza A virus, UniProt P0DOF5, S31N)
rep main protease: Replicase polyprotein 1ab, main protease (rep, Severe acute respiratory syndrome coronavirus 2, UniProt P0DTD1)
rep papain-like protease: Replicase polyprotein 1ab, papain-like protease (rep, Severe acute respiratory syndrome coronavirus 2, UniProt P0DTD1)

Compound	target	assay	system	conditions	how to read	endpoint	result
O=C(NC1CCN(c2ncnc3[nH]cnc23)CC1)c1cccc(NS(=O)(=O)c2ccc(C(F)(F)F)cc2)c1	Replicase polyprotein 1ab, nsp14 (rep, Severe acute respiratory syndrome coronavirus 2, UniProt P0DTD1)	–	–	3.125 µM	–	inhibition	89.4%
Cc1ncc(CNC23CC4CC(CC(C4)C2)C3)s1	Matrix protein 2 S31N	proton channel activity, inhibitor	Influenzavirus A, S31N mutant	100 µM	–	inhibition	28%
CCOc1ccc(CN2CC[C@H]2C(=O)NC)cc1-c1cccc(C(=O)NC[C@@H]2COC(C)(C)O2)c1	rep main protease	immobilized protein counterscreen	–	–	baseline: 3CL protease alone	enrichment index	9710
CC(C)CC(C(=O)N1CC2(CC1C#N)C(=O)Nc1ccccc12)N(C)C(=O)c1cc2c(F)cc(F)c(F)c2[nH]1 (stereo not shown)	Replicase polyprotein 1ab, main protease K90R/A193V (rep, Severe acute respiratory syndrome coronavirus 2, UniProt P0DTD1, A3456V/K3353R)	–	–	1 µM	–	remaining activity	-0.219% and -0.03% and -0.549% and -0.179% and -0.499% and 0.034%
C[C@H](c1cccc2ccccc12)N1CCC(C(=O)NCc2cc(F)cc(NC(=O)CN(C)C)c2)CC1	rep papain-like protease	nsp1-nsp2 cleavage, western blot	HEK293T cells	10 µM	–	inhibition	inhibited
Clc1nc(CNC23CC4CC(CC(C4)C2)C3)ns1	Matrix protein 2 S31N	proton channel activity, inhibitor	Influenzavirus A, S31N mutant	100 µM	–	inhibition	64%
CC(C)C[C@@H]1NC(=O)[C@H](C(C)C)NC(=O)[C@H](C(C)C)NC(=O)[C@@H]2CSC(=N2)c2cc(ccn2)C[C@@H](C(N)=O)NC(=O)[C@H](CCC(N)=O)NC1=O	rep main protease	enzyme activity, inhibitor	–	100 µM	–	inhibition	no inhibition
CC(C)(C)[C@H](NC(=O)NC1(CS(=O)(=O)C(C)(C)C)CCCCC1)C(=O)N1C[C@H]2[C@@H]([C@H]1C(=O)N[C@H](C#N)C[C@@H]1CCNC1=O)C2(C)C	Replicase polyprotein 1ab, main protease (rep, Severe acute respiratory syndrome coronavirus 2, UniProt P0DTD1, C3408A)	thermal shift	SARS-CoV-2	–	–	melting temperature	60.5 ± 0.1 °C
O=c1cc(-c2ccc(O)cc2)oc2c([C@@H]3OC[C@H](O)[C@H](O)[C@H]3O)c(O)c([C@@H]3O[C@H](CO)[C@@H](O)[C@H](O)[C@H]3O)c(O)c12	Replicase polyprotein 1ab, papain-like protease E167A (rep, Severe acute respiratory syndrome coronavirus 2, UniProt P0DTD1, E1730A)	enzyme activity, inhibitor	–	concentration not given, PLpro E167A mutant	–	inhibition	53.3%
CCCNC(=O)C1OC1C(=O)NC(C(=O)N1CCCC1C(=O)OC)C(C)CC (stereo not shown)	rep papain-like protease	–	–	concentration not given, C111S mutant	baseline: positive control	activity	49%

Repeated from above:
Compound	target	assay	system	conditions	how to read	endpoint	result
Clc1nc(CNC23CC4CC(CC(C4)C2)C3)ns1	Matrix protein 2 S31N	proton channel activity, inhibitor	Influenzavirus A, S31N mutant	100 µM	–	inhibition	64%
